Results from different studies.
Several values in a cell are separate wells, animals, samples, runs or records. ± marks the error that the study gave.

Compound	cell line	assay	conditions	how to read	quantity	result
CCN(CC)CC(=O)Nc1cccc(-n2cc(-c3ccc4ccc(-c5cn(-c6cccc(NC(=O)CN(CC)CC)c6)nn5)cc4c3)nn2)c1	RCC4	PCR angiogenesis array, measured: ITGB3	5 x IC50, 6 h, normoxia	relative to: untreated	fold regulation	-1.13
CC(=O)Oc1ccccc1C(=O)[Se]CC(=O)Nc1cccc(C(F)(F)F)c1	NCI60 breast subpanel	cell growth	10 µM, 48 h, one-dose	–	mean growth percent	-43.2%
CCC(=CCc1c(O)cc2c(c1O)C(=O)CC(c1ccc(O)cc1)O2)CC (centres unmarked)	HeLa	flow cytometry, PI staining	12 µM, 48 h	–	cells in S phase	27%
C=CC(=O)N1CCCC(n2c(=O)c3ncccc3n(Cc3ccc(Oc4ccccc4)cc3)c2=O)C1 (centres unmarked)	Rec1	measured: CAST	concentration not given	relative to: untreated	log2 fold change	0.26
CC(C)(C)c1cc(-c2ccc3cccnc3n2)nc(-c2ccc3cccnc3n2)c1.[Cl-].[Cl-].[Ru+2].c1cnc2c(c1)ccc1cccnc12	B16-F10	resazurin	added: light 633 nm, 20 mW, 100 J/cm2	–	EC50	166000 ± 5000 nM
Cn1ncc2cc(-c3cncc(Cl)c3N3CCC4(CCNC4=O)CC3)ccc21	LS174T	gene expression, microarray, measured: AKR1C2 mRNA	concentration not given, 4 h	relative to: untreated cells	log2 fold change	1.5
CC(C)(C)c1cc(-c2ccc3cc4ccccc4nc3n2)nc(-c2ccc3cc4ccccc4nc3n2)c1.Cc1ccncc1.[Cl-].[Cl-].[Ru+2].c1ccc2cc3nc4c5cccnc5c5ncccc5c4nc3cc2c1	B16-F10	resazurin	added: light 733 nm, 9 mW, 100 J/cm2	–	EC50	15000 nM
CC(C)c1ccc(N(C)c2ccc3c(c2)OCC[C@H]3CNc2cnccc2C(=O)O)cc1	MDA-MB-157	cell viability, CellTiter-Glo	7 days	–	IC50	≥ 10000 nM
O=C(C[Se]C(=O)c1ccc2ccccc2n1)Nc1cccc(C(F)(F)F)c1	NCI60 breast subpanel	cell growth	10 µM, 48 h, one-dose	–	mean growth percent	-76.7%
Cn1ncc(-c2ccc3c(=O)[nH]nc(CN)c3c2)c1-c1c(F)c(Cl)cc(OC2CC2)c1C#N	NOMO-1	cell viability, inhibitor, CellTiter-Glo	120 h, baseline-subtracted	–	IC50	30 nM
Cc1ncsc1-c1ccc(C(C)NC(=O)C2CC(O)CN2C(=O)C(NC(=O)CCCCCCCCCCN2CCCC(Nc3ncc(Cl)c(Nc4ccccc4S(=O)(=O)C(C)C)n3)C2)C(C)(C)C)cc1 (centres unmarked)	22Rv1	RNA-seq, measured: TEX19 mRNA	concentration not given	relative to: DMSO	log2 fold change	-6.35
CSCC[C@H](N)C(=O)N[C@@H](C)C(=O)N[C@@H](CCCNC(=N)N)C(=O)N[C@@H](CCCNC(=N)N)C(=O)N[C@@H](CC(=O)O)C(=O)N[C@@H](CCCCN)C(=O)N[C@H](C(=O)N[C@@H](CC(=O)O)C(=O)N[C@@H](Cc1ccccc1)C(=O)N[C@@H](C)C(=O)N[C@@H](CCCNC(=N)N)C(=O)N[C@@H](CCCNC(=N)N)C(=O)N[C@@H](CCCNC(=N)N)C(=O)N[C@@H](CCCNC(=N)N)C(=O)NCCCCCC(=O)NCCCCC(NC(=O)CCCCCNC(=O)[C@H](CCCNC(=N)N)NC(=O)[C@H](CCCNC(=N)N)NC(=O)[C@H](CCCNC(=N)N)NC(=O)[C@H](CCCNC(=N)N)NC(=O)[C@H](C)NC(=O)[C@H](Cc1ccccc1)NC(=O)[C@H](CC(=O)O)NC(=O)[C@@H](NC(=O)[C@H](CCCCN)NC(=O)[C@H](CC(=O)O)NC(=O)[C@H](CCCNC(=N)N)NC(=O)[C@H](CCCNC(=N)N)NC(=O)[C@H](C)NC(=O)[C@@H](N)CCSC)[C@@H](C)O)C(=O)NCCCCC(NC(=O)C(CCCCNC(=O)CCCCCNC(=O)[C@H](CCCNC(=N)N)NC(=O)[C@H](CCCNC(=N)N)NC(=O)[C@H](CCCNC(=N)N)NC(=O)[C@H](CCCNC(=N)N)NC(=O)[C@H](C)NC(=O)[C@H](Cc1ccccc1)NC(=O)[C@H](CC(=O)O)NC(=O)[C@@H](NC(=O)[C@H](CCCCN)NC(=O)[C@H](CC(=O)O)NC(=O)[C@H](CCCNC(=N)N)NC(=O)[C@H](CCCNC(=N)N)NC(=O)[C@H](C)NC(=O)[C@@H](N)CCSC)[C@@H](C)O)NC(=O)CCCCCNC(=O)[C@H](CCCNC(=N)N)NC(=O)[C@H](CCCNC(=N)N)NC(=O)[C@H](CCCNC(=N)N)NC(=O)[C@H](CCCNC(=N)N)NC(=O)[C@H](C)NC(=O)[C@H](Cc1ccccc1)NC(=O)[C@H](CC(=O)O)NC(=O)[C@@H](NC(=O)[C@H](CCCCN)NC(=O)[C@H](CC(=O)O)NC(=O)[C@H](CCCNC(=N)N)NC(=O)[C@H](CCCNC(=N)N)NC(=O)[C@H](C)NC(=O)[C@@H](N)CCSC)[C@@H](C)O)C(N)=O)[C@@H](C)O (some centres unmarked)	mouse C57BL/6 BMMs	–	1.0 µM, 3 days, added: RANKL	relative to: untreated control	osteoclast formation	25%
[BH3-][P+]1(c2ccccc2)CCCCC1	SW-620	Annexin V-FITC/PI flow cytometry	IC50, 72 h	–	late apoptotic cells	2.45%
CC1(C)CC[C@@]2(CO)C(=C3C=C[C@@H]4[C@@]5(C)CC[C@H](O)[C@@](C)(CO)[C@@H]5CC[C@@]4(C)[C@]3(C)C[C@@H]2O)C1	HepG2, SIRT1 siRNA	Western blot, measured: mTOR	concentration not given, high dose, unit not given, added: ethanol	relative to: β-actin	protein level	1.2 and 0.707 and 0.696
C=C(NC(=O)c1csc(-c2ccc(NC(=O)CCCCCBr)cc2)n1)C(=O)NC(=C)C(=O)OC	OCI	cell viability	–	–	EC50	800 nM
COC1CN([C@H]2CC[C@H]([C@@]3(C)Oc4c(Cl)cc(C(=O)NCc5c(SC)cc(C)[nH]c5=O)c(C)c4O3)CC2)C1	RT-4	cell growth or viability, ATP luminescence	6 days	–	GI50	> 10000 nM

Compound	cell line	assay	conditions	how to read	quantity	result
CO[C@@H]1[C@@H](OC(N)=O)[C@@H](O)[C@H](Oc2ccc3c(O)c(NC(=O)c4ccc(O)c(CC=C(C)C)c4)c(=O)oc3c2C)OC1(C)C	HCT-116 BRCA2 wild-type	–	200 µM, mean of replicates A, B	relative to: untreated	colony survival	65.8%
NC(=O)c1ccc(-c2ccccc2Cl)c2c3c([nH]c12)CC[C@@H](N)C3	HuCCT-1	cell growth or viability	–	–	IC50	6.2 nM
CC(=O)N(C)Cc1cccc(-c2cc3c(c(C(F)(F)F)c2)CCCC3N(C)C(=O)CCOCCOCCC(=O)N(C)C2CCCc3c2cc(-c2cccc(CN(C)C(C)=O)c2)cc3C(F)(F)F)c1 (centres unmarked)	CHO	immunoblot, measured: GADD34	20 µM	–	time to peak induction	6 h
CSC(=S)N/N=C(\C)c1ccc(S(=O)(=O)N2CCC(C)CC2)cc1	HCT-116	flow cytometry	3.66 µM (IC50), 72 h	–	cells in G0/G1 phase	39.6%
CC(=O)NCC(=O)N[C@@H](Cc1ccccc1)C(=O)N[C@@H](Cc1ccccc1)C(=O)N[C@@H](Cc1ccc(O)cc1)C(=O)NCC(=O)N[C@@H](Cc1ccc(O)cc1)C(=O)NCC(=O)N[C@@H](CO)C(=O)N[C@@H](CO)C(=O)N[C@@H](CO)C(=O)N[C@@H](CCCNC(=N)N)C(=O)N[C@@H](CCCNC(=N)N)C(=O)N[C@@H](C)C(=O)N1CCC[C@H]1C(=O)N[C@@H](CCC(N)=O)C(=O)N[C@H](C(=O)O)[C@@H](C)O	mouse dermal papilla cells	CCK-8	48 h	–	proliferation-promoting concentration	31.2 to 500 nM
CCN(C(=O)c1cc(F)ccc1Oc1nncnc1N1CCC2(C1)CN([C@H](CCCN(C)CCOC)C(C)C)C2)C(C)C	U-87 MG	cell growth	168 h	–	GI50	> 10000 nM
Cc1cc(Cl)cc(-c2ccnc3cc(CN4C(=O)C5C(C4=O)C5(C)C)sc23)c1C[C@@H]1CNCCO1 (some centres unmarked)	CHP-212 USP7 V517F knock-in clone	cell growth, SRB	0.625 µM, 625 nM in clone KI#2	–	viability	103%
CNS(=O)(=O)Nc1nccc(Cc2c(C)c3ccc(Oc4ncccc4F)cc3oc2=O)c1F	HSC-2	cell viability	7 days	–	IC50	7.38 nM
CCOc1cncc(-c2ccc(NC(=O)C3(c4ccnc(NS(=O)(=O)C5CC5)n4)CCOCC3)nc2)n1	SK-N-MC	cell growth or viability, ATP luminescence	72 h	–	IC50	293 nM
Cc1nc(Nc2ncc(C(=O)Nc3c(C)cccc3Cl)s2)cc(N2CCN(C(=O)CN)CC2)n1	KU812	flow cytometry	concentration not given, 24 h	–	late apoptotic cells	21.2% and 21.7% and 22.1%
COC(=O)c1cc(NC2=NC(=O)C(=Cc3ccc(C)cc3)S2)ccc1OC(C)=O	MCF7	GC-MS, measured: Oleic acid	1 µM	relative to: DMSO	metabolite level	0.45 fold change
CCCCCCCCCCCCCCCC(=O)OCC(CSC[C@H](N)C(=O)N[C@@H](CO)C(=O)N[C@@H](CCCCN)C(=O)N[C@@H](CCCCN)C(=O)N[C@@H](CCCCN)C(=O)N[C@@H](CCCCN)C(=O)NCCCCCC(=O)N[C@@H](CCCCN)C(=O)N[C@@H](CC(C)C)C(=O)N[C@H](C(=O)N[C@@H](Cc1ccccc1)C(=O)N[C@@H](Cc1ccccc1)C(=O)N[C@@H](Cc1ccc2ccccc2c1)C(=O)O)C(C)C)OC(=O)CCCCCCCCCCCCCCC (some centres unmarked)	BV-2	RNA-seq, measured: Csf2	concentration not given	–	mRNA level	2.5 FPKM and 4.55 FPKM and 2.84 FPKM
O=C(C[Se]C(=O)c1cc2ccccc2s1)Nc1cccc(C(F)(F)F)c1	NCI60 breast subpanel	cell growth	10 µM, 48 h, one-dose	–	mean growth percent	-63.8%
CN1CCCNC(=O)c2cccc(c2)C(=O)NCCCN(C)CCCNc2cccc3c2C(=O)c2cccc(c2C3=O)NCCC1	SAS	RNA-Seq, measured: BIN3 mRNA	1 µM, 6 h	relative to: untreated cells	log2 fold change	-0.703
[Cl-].[Cl-].[Ru+2].c1cc(-c2ccc3cccnc3n2)nc(-c2ccc3cccnc3n2)c1.c1ccc2cc3nc4c5cccnc5c5ncccc5c4nc3cc2c1	B16-F10	resazurin	added: light 523 nm, 100 J/cm2	relative to: dark EC50 over light EC50	phototoxicity index	2
COc1ccccc1-c1ccncc1C(=O)Nc1nnc(OCc2ccc(Cl)cc2)s1	MDA-MB-231	–	12 µM, single replicate	relative to: untreated	colony survival	67.6% and 74.1%

A few entries again:
Compound	cell line	assay	conditions	how to read	quantity	result
CC(C)(C)c1cc(-c2ccc3cccnc3n2)nc(-c2ccc3cccnc3n2)c1.[Cl-].[Cl-].[Ru+2].c1cnc2c(c1)ccc1cccnc12	B16-F10	resazurin	added: light 633 nm, 20 mW, 100 J/cm2	–	EC50	166000 ± 5000 nM
Cn1ncc2cc(-c3cncc(Cl)c3N3CCC4(CCNC4=O)CC3)ccc21	LS174T	gene expression, microarray, measured: AKR1C2 mRNA	concentration not given, 4 h	relative to: untreated cells	log2 fold change	1.5
CC(C)(C)c1cc(-c2ccc3cc4ccccc4nc3n2)nc(-c2ccc3cc4ccccc4nc3n2)c1.Cc1ccncc1.[Cl-].[Cl-].[Ru+2].c1ccc2cc3nc4c5cccnc5c5ncccc5c4nc3cc2c1	B16-F10	resazurin	added: light 733 nm, 9 mW, 100 J/cm2	–	EC50	15000 nM
CC(C)c1ccc(N(C)c2ccc3c(c2)OCC[C@H]3CNc2cnccc2C(=O)O)cc1	MDA-MB-157	cell viability, CellTiter-Glo	7 days	–	IC50	≥ 10000 nM
O=C(C[Se]C(=O)c1ccc2ccccc2n1)Nc1cccc(C(F)(F)F)c1	NCI60 breast subpanel	cell growth	10 µM, 48 h, one-dose	–	mean growth percent	-76.7%
